Experimental data of several laboratories.
Numbered parts are unrelated; each lists some results of a single study. Substitutions count along the parent as printed.

Set 1
Target: Interferon regulatory factor 5, full length, phosphomimetic (IRF5, Homo sapiens, UniProt Q13568-2, residues 1-514, K96S/S451D/S453D/S456D/S462D)
Method: protein-binding microarray
Form: double-stranded DNA, one strand shown
Medium: in vitro
Tested at: 250 nM
Notes: 60-bp whole probe
Added: salmon DNA 0.4 mg/ml
Reference: random background probes
Reading: higher = stronger binding
Constant ends, left off below: GCCTAGCAC … GTCTTGATTCGCTTGACGCTGCTG
`ATGCTACTGCATTTTTTTTTGTGCTAG` gave a log fluorescence of 0.315 z-score.
`ATAGGTTTCGACACTGGGTTAGTGCTA` gave a log fluorescence of 5.03 z-score.
With `TTAGGACTGGGGACTGCGTTAGTGCTA` the log fluorescence was -0.395 z-score.
The log fluorescence of `TTCGTTTTGTGTCTGGGCATGTGCTAG` is reported as 0.625 z-score.
For `GACGAACTGAGAGTGGAGACGTGCTAG`, the log fluorescence was -0.427 z-score.
With `GACGGTAACGGGTATCGGGACGTGCTA` the log fluorescence was 0.501 z-score.
The log fluorescence of `GACGGTATCATTCTCCTGACGTGCTAG` is reported as 1.07 z-score.
The log fluorescence of `TTAAGACTGGGTATCGGTTAGTGCTAG` is reported as 5.04 z-score.
`TTAGACTTCAGTTTCGATTAGTGCTAG` has a log fluorescence of 9.58 z-score.
`GTCGGACTGGGGTTTCGGGACGTGCTA` has a log fluorescence of 1.25 z-score.
For `TTATATATCAGTCTCGATTAGTGCTAG`, the log fluorescence was 2.18 z-score.
For `TTAGGTGTCGACACTGGGTTAGTGCTA`, the log fluorescence was -0.111 z-score.
`TTAGGTATCATTTTCCTTTAGTGCTAG` gave a log fluorescence of 1.94 z-score.
With `GACGGTATCGGGTTTCCGGACGTGCTA` the log fluorescence was 3.05 z-score.
The log fluorescence of `CTCATTCTCCACTTGTGTTTGTGCTAG` is reported as 0.546 z-score.
The log fluorescence of `GACGGTATCGACACTAGGGACGTGCTA` is reported as 1.57 z-score.
The log fluorescence of `TTAGAAATCGGGTATCGATTAGTGCTA` is reported as 4.74 z-score.

Set 2
Target: RNA binding protein fox-1 homolog 2, RRM domain, GST-SBP tag (RBFOX2, Homo sapiens, UniProt O43251-10, residues 100-194)
Method: RNA Bind-n-Seq
Form: RNA
Medium: in vitro
Tested at: 365 nM
Notes: natural RNA segment, single round, ends assumed
Reference: no-protein control
Reading: higher = stronger binding
`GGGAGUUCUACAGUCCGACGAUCUAUAUUCUCUACACUCCAGCAUUAAUAUGUCUGUUUAAAAAUUACUAAUUCUCAAAUGGCUCAAGAACAUUAGAAUUUAAGUACCUUUUAGAGUAAUUAUUUUAAGCAAAUGGAAUUCUCGGGUGCCAA`: “RBNS enrichment (R)” 0.463.
Under “RBNS enrichment (R)”, `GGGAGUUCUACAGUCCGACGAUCUGCACCCUAUUCAGGUCAGGGACACUGCCACCUCAUGGUCUGAUUCAGGGGCAUUUUUUUUUUUAGCCAGACUCUUUCCAAUCUCCUCCUUUCCUCCCAAGUCCACUUUAUGGAAUUCUCGGGUGCCAA` is recorded as 0.516.
`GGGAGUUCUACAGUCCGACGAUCCUCUUCAGUCUUCCUGUUCACCCCUCCUCCACUCCCUUUAACCGCAAAACUAGGUGCUGUGGCCCCAGACUACCCAUCCUUAAAAUGAUCCUUGCCCAGCGGUGGGAGCUUGGAAUUCUCGGGUGCCAA` — result for “RBNS enrichment (R)”: 0.38.
For `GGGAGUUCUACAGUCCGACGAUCGAGUAGAGAGCAAGGGAAGUGGUUCUUAGAUGGUGAUCUGGGAUUAGGCCCUCAAGACCCUUUUGGGUUUCUGCCCUGCCCACCCUCUGGAGAAGGUGGGCACUGGAUUAUGGAAUUCUCGGGUGCCAA`, “RBNS enrichment (R)” read 0.413.
Under “RBNS enrichment (R)”, `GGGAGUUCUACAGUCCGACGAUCGUGUUCUGUGUCCCUUGCAUGUGUGCGUGUUAGAGUGAGCGCGUAUGCAUCAACUCAUUGGGCUCUUGGCUGCUCACAAGGCAAAUUUGACUUGGAAAGACUUUCAUCUCUGGAAUUCUCGGGUGCCAA` is recorded as 2.42.
`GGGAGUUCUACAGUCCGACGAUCGGACUAUGCCCUGACCCCUCCUUUCUGAAAAUCAGUGCCCUCCCUGUUGCUCUAGGAGGCUCCUGCUGGCUUGGUAGAAGACAGAAUUCGAUCUGCCUGUCCCUUUUUCCUGGAAUUCUCGGGUGCCAA` — result for “RBNS enrichment (R)”: 0.448.
For `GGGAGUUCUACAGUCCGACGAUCAAAAGCGCUCAAGUUCAUGCUGACCAAUCUCAAGUGGGGUCUUGCCUGGGUGUCCUCACAGUUCUAUAACAAGUGACUUGCUCCUUAGGGGAUGUUUGCCUUUAAGGUUUUGGAAUUCUCGGGUGCCAA`, “RBNS enrichment (R)” read 1.62.
`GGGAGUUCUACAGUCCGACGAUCGCGAGAGGACCUUCUGACGGUGAUUGUCCAACAUGCAUCUGGCCCGCUCUGCGGCUCCUCCCACCUCCAUCUUCUCCUAUCAUCGGGCUUAUUAUCCUCUCUCUUGGCUUUGGAAUUCUCGGGUGCCAA` — result for “RBNS enrichment (R)”: 1.23.

Set 3
Target: CCNE2, cyclin fold, Cln2 fusion (human)
Method: yeast growth competition, sequencing
Medium: yeast
Notes: weak parent motif
Reference: not given
Reading: higher = stronger binding
Starting sequence: FOXM1 docking peptide (human); PHLARPIKVESPP
`I7A`: “normalised enrichment score” -0.482.
For `K8A`, “normalised enrichment score” read -0.234.
`P12A`: “normalised enrichment score” -1.21.
`E10A`: “normalised enrichment score” -0.327.
`V9A` — result for “normalised enrichment score”: -0.0783.
Under “normalised enrichment score”, `P13A` is recorded as -0.561.

Set 4
Target: Histone acetyltransferase KAT6A, winged helix 2, GST fusion (KAT6A, Homo sapiens, UniProt Q92794, residues 85-181)
Method: protein binding microarray
Form: double-stranded DNA, one strand shown
Medium: in vitro
Tested at: not given
Notes: 8-mer, flanks averaged, mean of 2 arrays, mostly near background
Reference: not given
Reading: higher = stronger binding
Residues (chain): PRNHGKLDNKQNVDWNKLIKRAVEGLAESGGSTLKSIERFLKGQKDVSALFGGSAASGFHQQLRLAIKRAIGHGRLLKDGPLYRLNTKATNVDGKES
`CCTCACTC` gave an E-score of 0.00834.
`ATCCATCA` gave an E-score of -0.195.
`CCTTCATA` has an E-score of 0.0266.
The E-score of `CTCAATGC` is reported as -0.058.
`CCGTCGGA` gave an E-score of 0.0202.
The E-score of `ATGGAAAT` is reported as -0.02.
For `CCTATCTA`, the E-score was -0.158.
The E-score of `CATGACTA` is reported as -0.209.
The E-score of `AGTGAAGA` is reported as -0.121.
The E-score of `CTCAGACC` is reported as -0.0038.
The E-score of `ATCCGCAA` is reported as 0.0268.
For `CACCAAAG`, the E-score was 0.0686.
For `ATATGAAT`, the E-score was -0.0364.
With `CTCAAACC` the E-score was 0.0686.
The E-score of `GAAGGCCA` is reported as -0.0107.
`ACCCATAG` has an E-score of -0.271.
The E-score of `GCGTTTAC` is reported as -0.199.

Set 5
Target: ABI1, truncated, D143A, DHFR fusion (Arabidopsis thaliana)
Method: DHFR PCA, deep sequencing
Medium: yeast
Notes: methotrexate growth selection, single substitutions
Added: (+)-ABA 710 µM
Reference: wild-type fitted maximum
Reading: higher = stronger binding
Starting sequence: PYL1, truncated, DHFR fusion (Arabidopsis thaliana); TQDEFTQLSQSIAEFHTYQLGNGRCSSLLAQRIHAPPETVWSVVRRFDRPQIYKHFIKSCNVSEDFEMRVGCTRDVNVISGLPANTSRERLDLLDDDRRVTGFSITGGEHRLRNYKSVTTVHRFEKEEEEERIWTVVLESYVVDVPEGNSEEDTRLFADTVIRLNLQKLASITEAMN
`N77G` — result for “relative binding score”: 98.3%.
For `P50I`, “relative binding score” read 40.4%.
`S63R` — result for “relative binding score”: 105%.
For `R74L`, “relative binding score” read -11.4%.
Under “relative binding score”, `K116Y` is recorded as 66.6%.
Under “relative binding score”, `Q51C` is recorded as 117%.
`Q19D`: “relative binding score” 110%.
`A35M` — result for “relative binding score”: 82.1%.
`S117D`: “relative binding score” -0.356%.
For `V62A`, “relative binding score” read 87.3%.
Under “relative binding score”, `L138I` is recorded as 106%.
`T120W`: “relative binding score” 19.5%.
Under “relative binding score”, `N165V` is recorded as 2.46%.
Under “relative binding score”, `I12V` is recorded as 94.1%.
`V44E` — result for “relative binding score”: 1.35%.
`E125D` — result for “relative binding score”: 103%.
For `D144V`, “relative binding score” read 77%.
`P37S`: “relative binding score” 89.4%.
`E109F` — result for “relative binding score”: 89.3%.
Under “relative binding score”, `E128H` is recorded as 106%.
For `D95E`, “relative binding score” read 92.2%.
